Assay results pooled from the literature.
Each numbered part is a random draw from the data of one study; scales do not carry over between parts. Positions count from the first letter of the parent shown.

Set 1
Target: Protein max, full length (MAX, Homo sapiens, UniProt P61244-2, residues 1-151)
Method: protein-binding microarray
Form: double-stranded DNA, one strand shown
Matrix: in vitro
Tested at: not given
Setting: k-mer, scored over probes, only values ≥0.25
Direction: higher = stronger binding
`CATACATG` gave an E-score of 0.27.
`CATACACG` gave an E-score of 0.392.
`CGTGCCCC` has an E-score of 0.335.
The E-score of `AATCACAT` is reported as 0.355.
`AACATGGG` has an E-score of 0.292.
For `CGTGATTA`, the E-score was 0.398.
For `CGCGCGGC`, the E-score was 0.301.
The E-score of `CGTGCTCC` is reported as 0.372.
`ACGTGGCA` has an E-score of 0.45.
`CCGCGCGC` has an E-score of 0.298.
With `CAGCGTGG` the E-score was 0.457.
The E-score of `ACACATGA` is reported as 0.424.
With `ACGTGACG` the E-score was 0.394.
`CATGGCTA` gave an E-score of 0.339.
With `ACTCGTGA` the E-score was 0.409.
The E-score of `GCAGCGCA` is reported as 0.253.
The E-score of `CGTGCTGA` is reported as 0.404.
`ATGTCACG` gave an E-score of 0.377.
With `CACCATGG` the E-score was 0.296.
The E-score of `CCGTGGTC` is reported as 0.253.

Set 2
Target: CCND1, cyclin fold, Cln2 fusion (human)
Method: yeast growth competition, sequencing
Matrix: yeast
Setting: weak parent motif
Baseline: not given
Direction: higher = stronger binding
Starting sequence: KIF20B docking peptide (human); KRAKRKLYTSEIS
Under “normalised enrichment score”, `R2A` is recorded as -0.00475.
For `S13A`, “normalised enrichment score” read -0.101.
Under “normalised enrichment score”, `L7A` is recorded as 0.00974.
`R5A`: “normalised enrichment score” -0.398.
`K1A` — result for “normalised enrichment score”: 0.0276.
For `Y8A`, “normalised enrichment score” read -0.31.

Set 3
Target: OGT, full length, His-tagged (human)
Method: phage display, sequencing
Matrix: in vitro
Tested at: 1 µg OGT
Setting: single substitutions, 15-mer displayed peptide, unchanged parent 16.7
Baseline: input library
Direction: higher = stronger binding
Starting sequence: peptide; NSEYMPQYQIIFAHQ
The fold enrichment of `ASEYMPQYQIIFAHQ [N1A]` is reported as 15.4 fold.
`NSERMPQYQIIFAHQ [Y4R]` has a fold enrichment of 0.771 fold.
`NSEYMPQYQIVFAHQ [I11V]` has a fold enrichment of 7.56 fold.
`NSEYMPQYQIIPAHQ [F12P]` has a fold enrichment of 14.9 fold.
`NSEYMPQYQILFAHQ [I11L]` has a fold enrichment of 12.5 fold.
With `NSEYNPQYQIIFAHQ [M5N]` the fold enrichment was 3.65 fold.
`NSEYMPQYQAIFAHQ [I10A]` gave a fold enrichment of 0.71 fold.
With `NSEYMLQYQIIFAHQ [P6L]` the fold enrichment was 4.61 fold.
`NSEYMPQWQIIFAHQ [Y8W]` gave a fold enrichment of 1.46 fold.
The fold enrichment of `MSEYMPQYQIIFAHQ [N1M]` is reported as 12.1 fold.
For `NSEYGPQYQIIFAHQ [M5G]`, the fold enrichment was 1.03 fold.
The fold enrichment of `NSEYMPEYQIIFAHQ [Q7E]` is reported as 4.91 fold.
The fold enrichment of `NTEYMPQYQIIFAHQ [S2T]` is reported as 16.7 fold.
For `FSEYMPQYQIIFAHQ [N1F]`, the fold enrichment was 17.6 fold.
`NREYMPQYQIIFAHQ [S2R]` gave a fold enrichment of 11.4 fold.
For `NSEYMPQLQIIFAHQ [Y8L]`, the fold enrichment was 3.47 fold.
`NSEYMPQYQIIFAHL [Q15L]` has a fold enrichment of 10.2 fold.
`NSEYMPQYQIIFALQ [H14L]` has a fold enrichment of 9.48 fold.
With `NSEYMPQYQIILAHQ [F12L]` the fold enrichment was 4.95 fold.

Set 4
Target: RING finger protein unkempt homolog, zinc fingers 1-6, GST-SBP tag (UNK, Homo sapiens, UniProt Q9C0B0, residues 30-357)
UniProt Q9C0B0, sequence (30-357, looked up): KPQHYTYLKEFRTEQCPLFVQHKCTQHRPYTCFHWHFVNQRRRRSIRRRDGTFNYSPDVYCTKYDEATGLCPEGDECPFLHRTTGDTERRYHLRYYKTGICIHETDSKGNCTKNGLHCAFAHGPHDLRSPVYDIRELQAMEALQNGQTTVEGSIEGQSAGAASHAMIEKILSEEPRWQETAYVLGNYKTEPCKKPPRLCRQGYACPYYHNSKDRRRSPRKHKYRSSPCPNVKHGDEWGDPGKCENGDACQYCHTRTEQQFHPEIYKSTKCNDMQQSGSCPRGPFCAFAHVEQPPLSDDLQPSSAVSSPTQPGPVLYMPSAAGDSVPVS
Method: RNA Bind-n-Seq
Form: RNA
Matrix: in vitro
Tested at: not given
Setting: RNA with constant flanks, ends assumed
Baseline: input RNA pool
Direction: higher = stronger binding
Shared flanks, not repeated: GGGAGUUCUACAGUCCGACGAUC … CAACAGAGGAUUGAGCAUCA
`AAACCGCUUUAUCAUCCUUGUGUAUGUACUGGCAGUAUUAAGUUUAUCCAUCAAGAAUGCUCCGUUCAAUGGCUGAAACACAGUCGAAAAGAAUACUGUGAAUUAUGCAAGCACAGAUUU` gave a bound/input enrichment of 0.241 ratio.
For `AAUAACAGGGCCAGGCACAGGGCCAAGCGAGAAGCUUGCAUUGAUUUCAUGCCUGGGUCUACCGAUGUAAUUAAAAAAGAGUCCUGUUUCUGGCCUGAAGAAAAUGCUAAUACCUUUUCA`, the bound/input enrichment was 0.135 ratio.
For `AACAUUUUUGUCAGGAUUAUUUCCCGUAAAAACGUAGUGAGCACUUUUCAUAUACUAAUUCCGUUGUACAUUUAACUUUGUAUAAUACAGAAAUCUAAAUAUAUUUAAUGAAUUCAAGCA`, the bound/input enrichment was 1.55 ratio.
`UUUCCGAUCUUGUCCCCCUGCCCUUCCCUCGUAGUCUCUGCAUUUCUCCCCCAAGGUGGCAUCCGCAGGCUUGAGGCUCCCAGGGGAUAGGAACGCCUGGCCUGGCGUGCUUAGCACCGC` gave a bound/input enrichment of 0.202 ratio.
With `UAUAAUAAUCAUGAAAUUCGUUCUGGAAAACAUAUUGGUGUCUGCAUCUCAGUUGCCAACAACCGGCUUUUUGUGGGCUCUAUUCCUAAGAGUAAAACCAAGGAACAGAUUCUUGAAGAA` the bound/input enrichment was 0.17 ratio.
The bound/input enrichment of `GAUAUUGUGCUUGCCAUCCUCGAAUUACUUAAGUAUCAUCAGAGAGUCUUAUAUAUUGACACCGACAUCCACCAUGGUGAUGGUGUUGAGGAAGCUUUUUAUACAACAGAUCGCGUGAUG` is reported as 0.298 ratio.
For `AAUGCAUCUCUUCAAGACCAUAUUUAUCCGAGCUGUUUUGGGAAUACUCCAGAGUGGAACCGUUCUAAAUUUAUAAGUCUUUGGGGAUCAGAAGUGAUGAAUGAUAAGAACUGGAAUCCU`, the bound/input enrichment was 0.307 ratio.
`UGGGCAUCCUCUCUGGGGAGCUGCUGGCCGCUUAGCGUUGUUUGAUUUUUGACCUUGACACCGCCGACCGGCUUGUGGUUUUUUUAAUUUAAAGAUAUUAAGACUUAAUUCACUAAAAUU` gave a bound/input enrichment of 0.594 ratio.

For quick reference, copied from above (set 3):
`NSEYMPQYQIIPAHQ [F12P]` has a fold enrichment of 14.9 fold.
`NSEYMPQYQIVFAHQ [I11V]` has a fold enrichment of 7.56 fold.
With `NSEYMLQYQIIFAHQ [P6L]` the fold enrichment was 4.61 fold.
`NSEYMPQYQILFAHQ [I11L]` has a fold enrichment of 12.5 fold.
`NSEYMPQYQIIFALQ [H14L]` has a fold enrichment of 9.48 fold.
For `NSEYMPQLQIIFAHQ [Y8L]`, the fold enrichment was 3.47 fold.
